Experimental data of several laboratories.
Lines come from different studies, so protocols differ. Numbers after ± are the reported error. Converted amounts (≈) assume the structure as drawn.

CC(C)C[C@@H]1NC(=O)[C@H](CCCCN)NC(=O)[C@@H]2CCCN2C(=O)[C@@H](Cc2ccc(O)cc2)NC(=O)[C@H](CCCCN)NC(=O)[C@H](C(C)C)NC(=O)[C@H](CC(C)C)NC(=O)[C@H](CCCCN)NC(=O)[C@H](C(C)C)NC(=O)[C@@H]2CCCN2C(=O)[C@@H](Cc2ccc(O)cc2)NC(=O)[C@H](CC(C)C)NC(=O)[C@H](CCCCN)NC(=O)[C@H](C(C)C)NC(=O)[C@H](CCCCN)NC1=O  MIC geometric mean (Gram-negative bacteria; 24 h, 7 strains): 32 µg/mL (≈ 17.8 µM)
CON(C(=O)c1cn(C)nc1C(F)F)C(C)Cc1c(Cl)cc(Cl)cc1Cl (stereo not drawn)  inhibition (Alternaria alternata; microbial growth; 1.56 µg/mL): 95%
CC[C@@](C)(NC)C(=O)NC(C)(C)C(=O)NC(C)(C)C(=O)NC(C)(C)C(=O)NCC(=O)NC(C)(C)C(=O)N1CCC[C@@H]1C(=O)N[C@@H](Cc1c[nH]c2ccccc12)C(=O)NC(C)(C)C(=O)N1C[C@H](O)C[C@@H]1C(=O)N[C@@H](C)C(=O)NC(C)(C)C(=O)NCCCC(=O)N[C@@H](CC(C)C)C(=O)N[C@](C)(CC)C(=O)NC(C)(C)C(=O)N[C@](C)(CC)C(=O)N[C@H](CO)Cc1ccccc1  antibacterial activity (Gram-negative bacteria; concentration not given): no effect
C=CCc1ccc(OCc2ccccc2)c(OC)c1  antifeedant index (Spodoptera frugiperda; larvae; 25 µg/mL; relative to: untreated control): 19%
CC(=O)O[C@@H]1C[C@@H](C)O[C@H]2O[C@@H]3C[C@@H]4CC[C@@H]5[C@H](CC[C@]6(C)[C@@H](C7=CC(=O)OC7)CC[C@]56O)[C@@]4(C)C[C@H]3O[C@]21O  worm number (Schistosoma mansoni; mouse, chronic infection; oral, 10 mg/kg single dose, males): 7 ± 1.4
CC[C@@H](C)[C@@H](NC(=O)[C@@H](C)NC(=O)[C@@H](CCCCN)NC(=O)[C@@H](CC(C)C)NC(=O)[C@@H](C)NC(=O)[C@H](NC(=O)[C@@H](Cc1c[nH]cn1)NC(=O)[C@@H](CC(C)C)NC(=O)[C@H](NC(=O)[C@H](NC(=O)[C@@H](CCCCN)NC(=O)[C@@H](CCCCN)NC(=O)[C@@H](C)NC(=O)[C@@H](CO)NC(=O)[C@@H](CCCCN)NC(=O)[C@@H](Cc1ccccc1)NC(=O)[C@H](NC(=O)[C@@H](CCCCN)NC(=O)[C@@H](CC(C)C)NC(=O)[C@@H](Cc1ccccc1)NC(=O)[C@@H](CO)NC(=O)[C@@H](CCCCN)NC(=O)[C@@H](Cc1c[nH]c2ccccc12)NC(=O)[C@@H](CCCCN)NC(C)=O)[C@H](C)O)[C@H](C)O)C(C)C)[C@H](C)O)C(=O)N[C@H](CO)C(=O)N[C@H](CO)C(N)=O  therapeutic index (Acinetobacter baumannii; 11 isolates; relative to: HC50 over geometric mean MIC): 128
CC[C@@H](C)[C@@H](NC(=O)[C@@H](C)NC(=O)[C@@H](CCCCN)NC(=O)[C@@H](CC(C)C)NC(=O)[C@@H](C)NC(=O)[C@H](NC(=O)[C@@H](Cc1c[nH]cn1)NC(=O)[C@@H](CC(C)C)NC(=O)[C@H](NC(=O)[C@H](NC(=O)[C@@H](CCCCN)NC(=O)[C@@H](CCCCN)NC(=O)[C@@H](C)NC(=O)[C@@H](CO)NC(=O)[C@@H](CCCCN)NC(=O)[C@@H](Cc1ccccc1)NC(=O)[C@H](NC(=O)[C@@H](CCCCN)NC(=O)[C@@H](CC(C)C)NC(=O)[C@@H](Cc1ccccc1)NC(=O)[C@@H](CO)NC(=O)[C@@H](CCCCN)NC(=O)[C@@H](Cc1c[nH]c2ccccc12)NC(=O)[C@@H](CCCCN)NC(C)=O)[C@H](C)O)[C@H](C)O)C(C)C)[C@H](C)O)C(=O)N[C@H](CO)C(=O)N[C@H](CO)C(N)=O  MIC50 (Absidia corymbifera; clinical isolate; 48 h, 30 °C): 12.5 µg/mL (≈ 4.18 µM)
C[C@H]1[C@H](C)CC[C@]2(CO)CC[C@]3(C)C(=CC[C@@H]4[C@@]5(C)CCCNC(C)(C)[C@@H]5CC[C@]43C)[C@H]12  selectivity index (Human cytomegalovirus; HFF, AD169; relative to: CC50 over EC50): 136
CC[C@H](C)[C@H](NC(=O)CN)C(=O)NCC(=O)N[C@H](C(=O)N[C@H](C(=O)N[C@@H](CC(C)C)C(=O)N[C@@H](CCCNC(=N)N)C(=O)NCC(=O)N[C@@H](Cc1c[nH]c2ccccc12)C(=O)N[C@@H](CC(C)C)C(=O)N[C@@H](CCCCN)C(=O)NCC(=O)N[C@H](C(=O)N[C@@H](CCSC)C(=O)N[C@H](C(=O)N1CCC[C@H]1C(=O)N[C@H](C(=O)N[C@H](C(=O)NCC(=O)N[C@@H](CC(C)C)C(=O)N[C@@H](CCCCN)C(=O)N[C@@H](Cc1c[nH]cn1)C(=O)N[C@@H](CO)C(=O)N[C@@H](CC(C)C)C(=O)O)[C@@H](C)CC)C(C)C)[C@@H](C)O)C(C)C)C(C)C)[C@@H](C)O  antibacterial activity (Gram-negative bacteria; MIC; concentration not given): active
CC[C@H](C)[C@H](NC(=O)[C@H](CCCCN)NC(=O)[C@H](CCCCN)NC(=O)[C@H](CC(C)C)NC(=O)[C@H](CCCCN)NC(=O)[C@H](CCC(=O)O)NC(=O)[C@H](CCCCN)NC(=O)[C@@H](NC(=O)[C@H](CCCCN)NC(=O)[C@H](CC(N)=O)NC(=O)[C@H](CCCNC(=N)N)NC(=O)[C@H](Cc1ccccc1)NC(=O)[C@H](CCCCN)NC(=O)[C@H](CCCNC(=N)N)NC(=O)[C@H](CC(C)C)NC(=O)[C@H](CCCNC(=N)N)NC(=O)[C@H](CCCCN)NC(=O)[C@H](CCCNC(=N)N)NC(=O)[C@H](CC(C)C)NC(=O)[C@@H](N)CCCNC(=N)N)[C@@H](C)CC)C(=O)NCC(=O)N[C@@H](CCC(N)=O)C(=O)N[C@@H](CCCCN)C(=O)N[C@H](C(=O)N[C@@H](CCC(N)=O)C(=O)NCC(=O)N[C@@H](Cc1ccccc1)C(=O)N[C@H](C(=O)N1CCC[C@H]1C(=O)N[C@@H](CCCCN)C(=O)N[C@@H](CC(C)C)C(=O)N[C@@H](CCC(N)=O)C(=O)N1CCC[C@H]1C(=O)N[C@@H](CO)C(=O)N[C@@H](CCCCN)C(=O)N[C@@H](CCC(N)=O)C(=O)N[C@@H](CO)C(=O)O)C(C)C)[C@@H](C)CC  lethal concentration (Staphylococcus; inhibition zone; methicillin-resistant coagulase-negative P1369): 2.09 µM
O=C(Cn1ccc(=O)c2ccccc21)N/N=C/c1cc(Br)c(O)c(Br)c1  inhibition (Bipolaris maydis; microbial growth; 50 µg/mL): 17.8%
CC[C@H](C)[C@H](NC(=O)[C@H](CCCCN)NC(=O)[C@H](CCCCN)NC(=O)[C@H](CC(C)C)NC(=O)[C@H](CCCCN)NC(=O)[C@H](CCC(=O)O)NC(=O)[C@H](CCCCN)NC(=O)[C@@H](NC(=O)[C@H](CCCCN)NC(=O)[C@H](CC(N)=O)NC(=O)[C@H](CCCNC(=N)N)NC(=O)[C@H](Cc1ccccc1)NC(=O)[C@H](CCCCN)NC(=O)[C@H](CCCNC(=N)N)NC(=O)[C@H](CC(C)C)NC(=O)[C@H](CCCNC(=N)N)NC(=O)[C@H](CCCCN)NC(=O)[C@H](CCCNC(=N)N)NC(=O)[C@H](CC(C)C)NC(=O)[C@@H](N)CC(C)C)[C@@H](C)CC)C(=O)NCC(=O)N[C@@H](CCC(N)=O)C(=O)N[C@@H](CCCCN)C(=O)N[C@H](C(=O)N[C@@H](CCC(N)=O)C(=O)NCC(=O)N[C@@H](Cc1ccccc1)C(=O)N[C@H](C(=O)N1CCC[C@H]1C(=O)N[C@@H](CCCCN)C(=O)N[C@@H](CC(C)C)C(=O)N[C@H](C(=O)N1CCC[C@H]1C(=O)N[C@@H](CCCNC(=N)N)C(=O)N[C@H](C(=O)N[C@@H](CCC(=O)O)C(=O)N[C@@H](CO)C(=O)O)[C@@H](C)O)C(C)C)C(C)C)[C@@H](C)CC  lethal concentration (Streptococcus sanguinis; inhibition zone; ATCC 1.2497; LB agar, overnight): 2.81 µM
C=CCc1ccc(OCC(=C)C)c(OC)c1  antifeedant index (Spodoptera frugiperda; larvae; 50 µg/mL; relative to: untreated control): 22.8%
COC(=O)C1=CO[C@@H](C)[C@@H]2Cn3ccc4c5ccccc5nc-4c3C[C@H]12  IC50 fold decrease (Plasmodium falciparum; parasite growth, [3H]-hypoxanthine incorporation; FCR3 drug-resistant; 48 h; relative to: 3D7 over FCR3): 2 to 6 fold
C=CCc1ccc(OCC=C(C)C)c(OC)c1  antifeedant index (Spodoptera frugiperda; larvae; 25 µg/mL; relative to: untreated control): 15.4%
CC(C)C[C@H](NC(=O)[C@H](C)NC(=O)[C@H](CCCNC(=N)N)NC(=O)[C@H](CO)NC(=O)[C@H](Cc1ccc(O)cc1)NC(=O)[C@H](C)NC(=O)[C@H](CCCNC(=N)N)NC(=O)[C@H](CCCNC(=N)N)NC(=O)[C@H](CCCNC(=N)N)NC(=O)[C@H](CCC(N)=O)NC(=O)[C@H](CCCNC(=N)N)NC(=O)[C@H](CCCNC(=N)N)NC(=O)[C@H](CCCCN)NC(=O)[C@H](CCCCN)NC(=O)[C@@H](N)CCCNC(=N)N)C(=O)N[C@@H](C)C(=O)N[C@@H](CCCNC(=N)N)C(=O)N[C@@H](CCC(N)=O)C(=O)N[C@@H](CC(C)C)C(=O)N[C@@H](CO)C(=O)N[C@@H](CO)C(=O)O  VP1 protein level reduction (enterovirus A71; western blot; RD; 50 µM, 2 h pretreatment then 9 h): ~60%
CC[C@H](C)[C@H](NC(=O)[C@H](CCCCN)NC(=O)[C@H](CCCCN)NC(=O)[C@H](Cc1ccccc1)NC(=O)[C@H](Cc1ccccc1)NC(=O)[C@H](CCCCN)NC(=O)[C@H](CCCCN)NC(=O)[C@H](Cc1ccccc1)NC(=O)[C@H](CCCNC(=N)N)NC(=O)[C@@H](N)CCCCN)C(=O)N[C@@H](CCCCN)C(=O)N[C@@H](CCCCN)C(=O)N[C@@H](CO)C(=O)N[C@H](C(=O)N[C@@H](CCCCN)C(=O)N[C@@H](CCCCN)C(=O)N[C@@H](CCCNC(=N)N)C(=O)N[C@H](C(=O)N[C@@H](CCCCN)C(=O)N[C@@H](CCCCN)C(=O)N[C@@H](CC(C)C)C(=O)N[C@@H](Cc1ccccc1)C(=O)N[C@@H](CCCCN)C(=O)N[C@@H](CCCCN)C(=O)N1CCC[C@H]1C(=O)N[C@@H](CCCNC(=N)N)C(=O)N[C@H](C(=O)N[C@H](C(=O)N1CCC[C@H]1C(=O)N[C@H](C(=O)N[C@@H](CO)C(=O)N[C@H](C(=O)N1CCC[C@H]1C(=O)N[C@@H](Cc1ccccc1)C(=O)O)[C@@H](C)CC)[C@@H](C)CC)[C@@H](C)CC)C(C)C)C(C)C)C(C)C  inhibition (Escherichia coli; bacterial ATP level; E24, Mueller-Hinton broth; 1 µg/mL, 1/4 × MIC): 50%
CC(=O)C1=C(O)C=C2Oc3c(C(C)=O)c(O)c(C)c(O)c3[C@@]2(C)C1=O  MIC99 (Candida tropicalis; broth microdilution; ATCC 750 fluconazole and amphotericin B resistant; 24 and 48 h): 17.4 µM (≈ 6 µg/mL)

For quick reference, copied from above:
CC(C)C[C@@H]1NC(=O)[C@H](CCCCN)NC(=O)[C@@H]2CCCN2C(=O)[C@@H](Cc2ccc(O)cc2)NC(=O)[C@H](CCCCN)NC(=O)[C@H](C(C)C)NC(=O)[C@H](CC(C)C)NC(=O)[C@H](CCCCN)NC(=O)[C@H](C(C)C)NC(=O)[C@@H]2CCCN2C(=O)[C@@H](Cc2ccc(O)cc2)NC(=O)[C@H](CC(C)C)NC(=O)[C@H](CCCCN)NC(=O)[C@H](C(C)C)NC(=O)[C@H](CCCCN)NC1=O  MIC geometric mean (Gram-negative bacteria; 24 h, 7 strains): 32 µg/mL (≈ 17.8 µM)
CON(C(=O)c1cn(C)nc1C(F)F)C(C)Cc1c(Cl)cc(Cl)cc1Cl (stereo not drawn)  inhibition (Alternaria alternata; microbial growth; 1.56 µg/mL): 95%
